Published values from different studies.
Each line is one published result; not all experiments were run side by side. Numbers after ± are the reported error.

SMILES	tested on	assay	system	setting	quantity	value
COc1cc(C(=O)NCCOCCOCCOCCNC(=O)c2ccc([18F])nc2)ccc1NC(=O)C1NC(CC(C)(C)C)C(C#N)(c2ccc(Cl)cc2F)C1c1cccc(Cl)c1F (stereo not drawn)	SJSA-1 tumour model		host not given, tumour	2 h, tumour-bearing	tracer uptake	0.65 %ID/g
CSCC[C@@H]1NC(=O)[C@@H]2CSSC[C@H](NC(=O)[C@H](CO)NC(=O)[C@H](C)N)C(=O)N[C@@H](CCCNC(=N)N)C(=O)N[C@@H]([C@@H](C)O)C(=O)N3CCC[C@H]3C(=O)N[C@@H](CCCCN)C(=O)N[C@@H](CC(=O)O)C(=O)N[C@H]3CSSC[C@H](NC(=O)[C@H](CCCCN)NC(=O)[C@H](CCCNC(=N)N)NC(=O)[C@H](CC(N)=O)NC1=O)C(=O)N[C@@H](CCCCN)C(=O)N[C@H]1CSSC[C@H](NC(=O)[C@@H]4CCCN4C(=O)[C@H](CC(=O)O)NC(=O)[C@H](C)NC3=O)C(=O)N[C@@H](C)C(=O)N[C@@H](CCCCN)C(=O)N[C@@H](CCC(=O)O)C(=O)N[C@@H]([C@@H](C)O)C(=O)NCC(=O)N[C@@H](CSSC[C@@H](C(N)=O)NC(=O)[C@H](CCCNC(=N)N)NC(=O)[C@H](CC(N)=O)NC1=O)C(=O)N1CCC[C@H]1C(=O)N[C@@H](Cc1ccc(O)cc1)C(=O)NCC(=O)N[C@@H](CCCCN)C(=O)N2			DA rat pristane-induced arthritis, serum	subcutaneous, 0.1 mg/kg every other day, 21 days	Triglycerides	45.2 mg/dL
CC[C@H](C)C(=O)N1CCC(NC(=O)Nc2ccc(OC(F)(F)F)c(F)c2)CC1			human, plasma	oral, 8 mg, fed	AUC(0-inf)	4330 ng·h/mL
CN(C)CC1CCCCC1(O)c1cccc(O)c1 (stereo not drawn)	Caco-2 TC7			3 h, pH 6.8 apical, 7.4 basolateral, range over 1 to 100 µM	efflux ratio	1.8 to 2.3
COc1ccc(CNc2nc(N3CCC[C@H]3CO)ncc2C(=O)NNC(=O)c2cnc(N3CCC[C@H]3CO)nc2NCc2ccc(OC)c(Cl)c2)cc1Cl	Salmonella typhimurium		TA1535	62.5 µg/plate, 48 h	revertant count	33 ± 2
C[C@@](O)(C(F)F)[C@H](NC(=O)c1ccc(C#CC#CC2CC2)cc1)C(=O)NO			dog, plasma	intravenous, 10 mg/kg	Cmax	4400 ng/mL
CCC(=O)N(C)c1ccc(Cl)c(Cl)c1	Salmonella typhimurium	Ames test	TA1537	1.00 mg/plate, with rat liver S9	revertants	3 ± 1.5 revertants/plate
CN[C@](C)(C[18F])C(=O)O	DU-145 tumour model		host not given, muscle	15 min, tumour-bearing	tracer uptake	1.6 %ID/g
COc1ccc(CNc2nc(N3CCC[C@H]3CO)ncc2C(=O)NN)cc1Cl	Salmonella typhimurium		TA102	1000 µg/plate, added: rat liver S9	revertant count	266 ± 12
